Published values gathered from unrelated publications.
Each numbered part is a random draw from the data of one study; scales do not carry over between parts.

Block 1
Target: Prothrombin, mature alpha-thrombin (F2, Homo sapiens, UniProt P00734)
Method: aptamer microarray, sandwich
Form: DNA with 2'F-ANA
Medium: in vitro
Tested at: 200 nM
Setting: whole 15-mer aptamer, many near background
Together with: Cy3 exosite-II aptamer, 400 nM
Reading: higher = stronger binding
Oligonucleotide: GGTTGGTGTGGTTGG
Modification	mean fluorescence intensity [a.u.]
2'F-ANA at 2 4 5 7 8 13	55.4
2'F-ANA at 1 3 4 5 6 7 9 10 11 13	46.7
2'F-ANA at 1 5 6 7 9 10 12 13 15	52
2'F-ANA at 1 4 6 7 8 11 12 13 14 15	98.9
2'F-ANA at 1 3 4 5 7 8 10 13 15	49.1

Block 2
Target: Histone acetyltransferase KAT6A, winged helix 1, GST fusion (KAT6A, Homo sapiens, UniProt Q92794, residues 1-85)
Method: protein binding microarray
Form: double-stranded DNA, one strand shown
Medium: in vitro
Tested at: not given
Setting: 8-mer, flanks averaged, mean of 2 arrays, mostly near background
Reference: not given
Reading: higher = stronger binding
Target sequence (chain): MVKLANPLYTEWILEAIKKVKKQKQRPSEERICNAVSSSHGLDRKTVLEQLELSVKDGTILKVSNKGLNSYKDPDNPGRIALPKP
Oligonucleotide	E-score
CAATAGGG	-0.0706
CGGCTGAA	0.19
GAGGCCTA	-0.103
GTACATGA	-0.0114
TCACTGGA	-0.146
ACGTTTGG	-0.062
CAACTACA	-0.175

Block 3
Target: Sal-like protein 4, full length isoform A (SALL4, Homo sapiens, UniProt Q9UJQ4, residues 1-1053)
Sequence of UniProt Q9UJQ4 (whole entry, looked up): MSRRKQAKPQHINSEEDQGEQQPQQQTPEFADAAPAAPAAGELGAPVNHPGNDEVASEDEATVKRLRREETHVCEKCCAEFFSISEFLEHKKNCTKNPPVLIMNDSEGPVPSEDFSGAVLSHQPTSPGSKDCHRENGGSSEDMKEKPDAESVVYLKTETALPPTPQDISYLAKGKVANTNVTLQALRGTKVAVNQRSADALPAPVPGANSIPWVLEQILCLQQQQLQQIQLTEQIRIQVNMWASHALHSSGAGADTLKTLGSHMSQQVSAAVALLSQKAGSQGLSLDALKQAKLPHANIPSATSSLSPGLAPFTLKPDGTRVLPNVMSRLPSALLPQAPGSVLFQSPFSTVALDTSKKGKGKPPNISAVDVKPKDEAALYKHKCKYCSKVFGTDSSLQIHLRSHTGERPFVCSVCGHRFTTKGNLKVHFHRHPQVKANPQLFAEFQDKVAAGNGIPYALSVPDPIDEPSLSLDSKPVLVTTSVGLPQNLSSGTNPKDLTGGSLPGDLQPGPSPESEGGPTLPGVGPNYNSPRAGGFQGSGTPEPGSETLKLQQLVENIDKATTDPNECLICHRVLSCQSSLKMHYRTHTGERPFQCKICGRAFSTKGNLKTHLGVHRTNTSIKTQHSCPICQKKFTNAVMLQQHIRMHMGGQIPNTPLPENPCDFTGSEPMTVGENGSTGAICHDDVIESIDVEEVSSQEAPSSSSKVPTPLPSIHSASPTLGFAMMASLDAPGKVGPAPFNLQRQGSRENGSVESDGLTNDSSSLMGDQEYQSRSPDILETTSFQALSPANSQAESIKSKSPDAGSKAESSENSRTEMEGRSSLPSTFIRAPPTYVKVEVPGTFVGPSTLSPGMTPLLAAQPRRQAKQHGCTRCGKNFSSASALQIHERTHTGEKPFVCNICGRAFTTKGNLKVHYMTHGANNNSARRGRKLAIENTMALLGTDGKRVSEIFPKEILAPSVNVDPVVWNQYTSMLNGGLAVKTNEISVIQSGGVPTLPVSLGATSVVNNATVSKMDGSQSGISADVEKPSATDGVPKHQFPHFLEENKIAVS
Method: universal PBM
Form: double-stranded DNA, one strand shown
Medium: in vitro
Tested at: 600 nM
Setting: 8-mer, flanks averaged, mean of replicates
Reading: higher = stronger binding
Oligonucleotide	E-score
AGCGAAAT	0.111
CGTCCTAA	-0.0299
GTTCGCAA	0.114
AAGGGATT	0.0363
GGTGCCGA	-0.21

Further values, each from its own experiment
Molecule	target	assay	system	setting	how to read	measurement	value
PhoQ, residues 284 288 289 292 302 303 SLANKL	PhoP, residues 12 14 15 18 19 LHSVW (Escherichia coli, UniProt P23836)	Sort-seq, item: YFP reporter	E. coli	PhoQ-PhoP variant library, together with: 10 µM Mg2+	reference: high Mg2+ state, higher = stronger signaling	fold induction	9.87

Excerpt of the above (block 3):
Oligonucleotide	E-score
GGTGCCGA	-0.21
